Results gathered from unrelated publications.
Every numbered part comes from another study and shows a few of its results, in no order.

Set 1
Target: RNA binding protein fox-1 homolog 2, RRM domain, GST-SBP tag (RBFOX2, Homo sapiens, UniProt O43251-10, residues 100-194)
Technique: RNA Bind-n-Seq
Molecule type: RNA
Sample: in vitro
Tested at: 365 nM
Notes: natural RNA segment, single round, ends assumed
Relative to: no-protein control
Reading: higher = stronger binding
Target sequence (chain): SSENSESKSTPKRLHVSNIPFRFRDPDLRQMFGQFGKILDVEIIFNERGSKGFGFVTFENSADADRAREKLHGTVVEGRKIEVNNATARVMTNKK
Under “RBNS enrichment (R)”, `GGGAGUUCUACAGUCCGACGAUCAGGUACAGUUUAUUAACUAGAUGGAAGAGAAUGGAAUUACUCCAAGAAUACAAGUGCACAGGCGGCAACUCCUUACUUCCAGCAAAAUUGAAACUGCUGUCUCUGAAACUUGGAAUUCUCGGGUGCCAA` is recorded as 0.596.
`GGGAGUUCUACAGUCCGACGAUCAUGAUUGAUGACGGGUUCCCGCCUGCUGUCCCCUCCCUGAUCACACAGCUAACGAGGCUGCCUCCAGCAUUUCCUGAUUUCCUCUGUGGUAAUAAAAGCUUUCUGUGCUUUGGAAUUCUCGGGUGCCAA`: “RBNS enrichment (R)” 0.579.
`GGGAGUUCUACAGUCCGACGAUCGACAUUAAGAAGUGGAUGGAUGUUGUUCCUUUUUUGAAGUUGUCAUUAAAGUAGGUGCAACAACCAAGAAAGUGUCUCUUCCCUCUUUGAAAGCCUGCCCCAUCUCUGCCUGGAAUUCUCGGGUGCCAA`: “RBNS enrichment (R)” 1.02.
`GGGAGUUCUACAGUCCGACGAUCUCCAAUUACAACUCUGCACUGGAUGUGAAGAAGCAAAAACUAUUCCGUCUACUCACAGAACAGUACUUUCUGGAAUAUUAUGGGGGAUUGUACCAAAACAAGAACCACUUUGGAAUUCUCGGGUGCCAA`: “RBNS enrichment (R)” 0.303.
For `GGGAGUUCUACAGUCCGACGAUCCAUUGCAAUGGGAGGUGGAGGGACAGGCUCAGCCUCCUCAUUGUCUAAAUGAGGCCUAAAUGUGUGAAGUGCGAUUUCUGCUUUUGUGUACCCCACCACCCCAUUACCACUGGAAUUCUCGGGUGCCAA`, “RBNS enrichment (R)” read 0.518.
`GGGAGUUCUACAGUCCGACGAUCUUUUCAGAGUCUAUAAGCAUGCAGCCAUGGGUUGUGAGCUGACCUUGAGACAGGACGGGUCCCACACUCCCUGCCUCUGUCUCACUCAACACUCAGGCUAAGAAGGAGCGUGGAAUUCUCGGGUGCCAA` — result for “RBNS enrichment (R)”: 9.09.
Under “RBNS enrichment (R)”, `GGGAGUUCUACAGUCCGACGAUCGCAGUCAGGGCACCUGGAUUGUUCUGUUAUCGAUAUUGUUUCUUGUAGCGGCCUGUUGUGCAUGCCACCAUGCUGCUGGCCCGGGGGGAUUUGCUCUGAGUCUCCGGUGCUGGAAUUCUCGGGUGCCAA` is recorded as 4.37.
For `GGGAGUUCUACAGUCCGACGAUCCCCCAGAUGGACUGGAAUGUUGUGGCAUGAGAGCGCAUGUGUGCGAUGGCCCCGCUGUGGUCCCCUCUCUGUCCCUCCAUCUGUAUGUGUUCUGUGUCCCUUGCAUGUGUUGGAAUUCUCGGGUGCCAA`, “RBNS enrichment (R)” read 38.1.

Set 2
Target: TAR DNA-binding protein 43, full length, His tag (TARDBP, Homo sapiens, UniProt Q13148, residues 1-414)
Technique: RNA Bind-n-Seq
Molecule type: RNA
Sample: in vitro
Tested at: 20 nM
Notes: 6-mer, flanks averaged, single round
Together with: 150 mM KCl
Relative to: input library
Reading: higher = stronger binding
For `GUGUAU`, “6-mer enrichment (R)” read 1.1.
For `AAGAUG`, “6-mer enrichment (R)” read 0.836.
For `UCUCUC`, “6-mer enrichment (R)” read 0.539.
Under “6-mer enrichment (R)”, `UCACUG` is recorded as 0.645.
`UGGGUG` — result for “6-mer enrichment (R)”: 3.85.
`ACUGAA` — result for “6-mer enrichment (R)”: 0.673.
`ACCAGA`: “6-mer enrichment (R)” 0.712.
`GUAUUU` — result for “6-mer enrichment (R)”: 0.687.
For `GCAAGA`, “6-mer enrichment (R)” read 0.984.
For `GCUGAA`, “6-mer enrichment (R)” read 0.885.
`GGUGGC` — result for “6-mer enrichment (R)”: 3.24.
Under “6-mer enrichment (R)”, `ACAUUC` is recorded as 0.555.
`CGGUUA`: “6-mer enrichment (R)” 0.712.
`CAGAAU` — result for “6-mer enrichment (R)”: 0.688.
`AUGCGU`: “6-mer enrichment (R)” 0.917.
`AGGUUC` — result for “6-mer enrichment (R)”: 0.665.
Under “6-mer enrichment (R)”, `AUAACU` is recorded as 0.668.
`AAUGGA` — result for “6-mer enrichment (R)”: 0.91.
Under “6-mer enrichment (R)”, `AAGGAG` is recorded as 1.58.
`UAGGUC` — result for “6-mer enrichment (R)”: 0.705.
`GAACUG` — result for “6-mer enrichment (R)”: 0.915.
Under “6-mer enrichment (R)”, `UCGAGA` is recorded as 0.787.
`GGAAAC`: “6-mer enrichment (R)” 0.925.
Under “6-mer enrichment (R)”, `GCCGCU` is recorded as 0.837.

Set 3
Target: Sal-like protein 4, full length isoform B (SALL4, Homo sapiens, UniProt Q9UJQ4-2, residues 1-616)
Technique: universal PBM
Molecule type: double-stranded DNA, one strand shown
Sample: in vitro
Tested at: not given
Notes: 8-mer, flanks averaged, mean of replicates
Reading: higher = stronger binding
`CCTTCTAA` has an E-score of 0.129.
For `GTTAGGGA`, the E-score was -0.0558.
`CCTCTGAC` has an E-score of -0.12.
`AATCGACA` has an E-score of 0.169.
For `CGAAATCC`, the E-score was -0.0128.
For `CAGTATGA`, the E-score was 0.177.
The E-score of `AAACAAAA` is reported as 0.215.
With `AGGTTAGA` the E-score was -0.108.
`GTAGCGAC` gave an E-score of -0.193.
With `ACACTGGA` the E-score was 0.0226.
With `GACAACTC` the E-score was -0.0685.
With `AGAAACTC` the E-score was -0.0673.
For `GGCAGGTA`, the E-score was -0.172.
For `AACGTCCT`, the E-score was 0.0373.
`CCCGTTTA` gave an E-score of 0.114.
`CCTCACAC` has an E-score of -0.125.
With `GGTTTATA` the E-score was 0.198.
`CCAATCCG` has an E-score of -0.151.
`GACTATAA` has an E-score of 0.265.
For `GTAAGATA`, the E-score was 0.25.
The E-score of `CCACGCAC` is reported as -0.129.
`AAGGATCA` gave an E-score of 0.00865.
`CCGTCCCC` has an E-score of -0.299.
`GGCACTGA` has an E-score of -0.104.
`GGTTCCGA` gave an E-score of -0.267.

Set 4
Target: Interferon regulatory factor 5, full length, phosphomimetic (IRF5, Homo sapiens, UniProt Q13568-2, residues 1-514, S451D/S453D/S456D/S462D)
Technique: protein-binding microarray
Molecule type: double-stranded DNA, one strand shown
Sample: in vitro
Tested at: 940 nM top
Notes: 60-bp whole probe
Together with: salmon DNA 0.4 mg/ml
Relative to: random background probes
Reading: higher = stronger binding
All sequences stand within: GCCTAGCAC … GTCTTGATTCGCTTGACGCTGCTG
Under “fitted relative affinity”, `CTAGGTTTCGGACTGGGTTAGTGCTAG` is recorded as 6.19 z-score.
`TTAGGTATTCTTCTCCTTTAGTGCTAG` — result for “fitted relative affinity”: 0.88 z-score.
`TCATTTTTCCCTCTGGAAAAGTGCTAG` — result for “fitted relative affinity”: -0.0574 z-score.
`TTAGATATCAGTTTCGATAAGTGCTAG` — result for “fitted relative affinity”: 7.46 z-score.
`GACGAACTGAGTTGCGAGACGTGCTAG`: “fitted relative affinity” -0.382 z-score.
Under “fitted relative affinity”, `TTTGCTTTCCTTTGCTTTCTGTGCTAG` is recorded as 0.958 z-score.
`TCATTTTCACTTTTCCTACTGTGCTAG`: “fitted relative affinity” 3.5 z-score.
Under “fitted relative affinity”, `TCCTATGTCATTTACATTTTGTGCTAG` is recorded as 0.118 z-score.
Under “fitted relative affinity”, `TCAGCTCCCTTTCTCTCACTGTGCTAG` is recorded as 0.929 z-score.
`TCAGCTCTGCAGCTCAGACTGTGCTAG`: “fitted relative affinity” -0.678 z-score.
Under “fitted relative affinity”, `TCATGTGTACATCTCTCACTGTGCTAG` is recorded as 0.337 z-score.
`GACGATTTCAGGATCGAGACGTGCTAG`: “fitted relative affinity” -0.0671 z-score.
`AACGGTTTCGGTTTCGGGACGTGCTAG`: “fitted relative affinity” 14.2 z-score.
For `TTAGGACTGCTATTCCTTTAGTGCTAG`, “fitted relative affinity” read -0.405 z-score.
Under “fitted relative affinity”, `GACGGTTTCCTACTGCTGGCGTGCTAG` is recorded as 1.06 z-score.
`TACGATCTCAGTTTCGAGACGTGCTAG` — result for “fitted relative affinity”: 3.88 z-score.
Under “fitted relative affinity”, `GACGGTATCGACTTTCGGTACGTGCTA` is recorded as 5.02 z-score.
`GACGATATCGGGTAGCGAGACGTGCTA`: “fitted relative affinity” -0.153 z-score.
Under “fitted relative affinity”, `GTGTGTGTCTGATTATTTACGTGCTAG` is recorded as 0.404 z-score.

Excerpt of the above (set 2):
`AUGCGU`: “6-mer enrichment (R)” 0.917.
Under “6-mer enrichment (R)”, `AAGGAG` is recorded as 1.58.
For `UCUCUC`, “6-mer enrichment (R)” read 0.539.
For `GCAAGA`, “6-mer enrichment (R)” read 0.984.
`AGGUUC` — result for “6-mer enrichment (R)”: 0.665.
`CAGAAU` — result for “6-mer enrichment (R)”: 0.688.
`UGGGUG` — result for “6-mer enrichment (R)”: 3.85.
Under “6-mer enrichment (R)”, `AUAACU` is recorded as 0.668.
For `GUGUAU`, “6-mer enrichment (R)” read 1.1.
Under “6-mer enrichment (R)”, `UCGAGA` is recorded as 0.787.
`GGAAAC`: “6-mer enrichment (R)” 0.925.
`GUAUUU` — result for “6-mer enrichment (R)”: 0.687.
